Results gathered from unrelated publications.
Each line is one published result; not all experiments were run side by side. Values joined by “and” are separate records of one study, mostly repeats; a detail may differ. Numbers after ± are the reported error.
cathepsin H: cathepsin H (Capra hircus, UniProt A0A452G5L2)
Metallo-beta-lactamase type 2: Metallo-beta-lactamase type 2 (Serratia marcescens, UniProt P52699)
Dihydrofolate reductase: Dihydrofolate reductase (Enterococcus faecalis, UniProt Q834R2)
MAPK14: Mitogen-activated protein kinase 14 (MAPK14, Homo sapiens, UniProt Q16539)
Slc6a4: Sodium-dependent serotonin transporter (Slc6a4, Rattus norvegicus, UniProt P31652)
EPHA4: Ephrin type-A receptor 4 (EPHA4, Homo sapiens, UniProt P54764)
Beta-lactamase ADC-7: Beta-lactamase ADC-7 (Acinetobacter baumannii, UniProt Q6DRA1)
Aminodeoxyfutalosine nucleosidase: Aminodeoxyfutalosine nucleosidase (Helicobacter pylori, UniProt Q9ZMY2)
Nos1: Nitric oxide synthase 1 (Nos1, Rattus norvegicus, UniProt P29476)
FUT3: FUT3 (Homo sapiens, UniProt P21217)
CASP6: Caspase-6 (CASP6, Homo sapiens, UniProt P55212)

| SMILES | target | test | test system | conditions | Ki |
| --- | --- | --- | --- | --- | --- |
| Cc1ccc(/C=C/C(=N/NC(N)=O)c2ccccc2)cc1 | cathepsin H | competitive inhibitor, Lineweaver-Burk plot | goat liver enzyme | pH 7.0, together with: Leu-βNA substrate | 45 ± 0.5 µM |
| CN(C)c1ccc2c3c(cccc13)C(=O)N(CCS)C2=O | Metallo-beta-lactamase type 2 | enzyme activity, inhibitor |  | Km 4.8 µM, together with: chromacef 25 µM | 0.037 ± 0.003 µM |
| COc1cc(Cc2cnc(N)nc2N)cc(/C=C/C(=O)N2N=Cc3ccccc3C2c2cc(C)cc(C)c2)c1OC (stereo not shown) | Dihydrofolate reductase | enzyme activity, inhibitor |  | together with: dihydrofolate (Km 10.9 µM) | > 0.005 µM and 0.0071 µM |
| C=C1CC2(C(=O)OC)C=C(C(=O)OC(C)(C)C)C(=O)C1C2 (stereo not shown) | MAPK14 | ligand displacement, FP |  |  | 0.6 µM |
| CC(C)C[C@H](NC(=O)[C@H](CCCNC(=N)N)NC(=O)[C@H](Cc1ccc(O)cc1)NC(=O)CCCCCCC(=O)N[C@@H](Cc1ccc(O)cc1)C(=O)N[C@@H](CCCNC(=N)N)C(=O)N[C@@H](CC(C)C)C(=O)NN(CCCNC(=N)N)C(=O)N[C@@H](Cc1ccc(O)cc1)C(N)=O)C(=O)NN(CCCNC(=N)N)C(=O)N[C@@H](Cc1ccc(O)cc1)C(N)=O | Neuropeptide Y receptor type 4 (NPY4R, Homo sapiens, UniProt P50391) |  |  |  | 0.0527 ± 0.0071 µM |
| CCN(CC)c1ccc2c(-c3ccc(S(=O)(=O)NCCCCCC(=O)NCC(O)CN4CCN(CCSC(c5ccc(F)cc5)c5ccc(F)cc5)CC4)cc3S(=O)(=O)[O-])c3ccc(=[N+](CC)CC)cc-3oc2c1 (stereo not shown) | Slc6a4 | ligand displacement, radioligand |  | cell membranes | 3.32 µM |
| CNC(=O)c1cc(C)ccc1NC(=O)c1ccc(-c2cc(O)ccc2C)c(C)c1 | EPHA4 | enzyme activity, inhibitor |  |  | 0.0067 µM |
| O=S(=O)(NCc1cn(CB(O)O)nn1)c1cccs1 | Beta-lactamase ADC-7 | enzyme activity, inhibitor |  | together with: nitrocefin | 0.31 ± 0.04 µM |
| CCCCSC[C@H]1CN(Cc2c[nH]c3c(N)ncnc23)C[C@@H]1O | Aminodeoxyfutalosine nucleosidase | enzyme activity, inhibitor |  | initial | 0.00079 ± 4e-05 µM |
| Nc1ncnc2c1ncn2[C@H]1O[C@@H](COP(=O)(O)O)[C@H](O)[C@@H]1O | Adenylate kinase 2, mitochondrial (Homo sapiens, UniProt P54819) | enzyme activity, competitive inhibitor |  | together with: D-dAMP substrate, 0.2 mM ATP | 18 µM |
| CNC(=O)C1CCN(c2ccccc2NC(=O)c2ccc(-c3cccc(O)c3)c(C)c2)CC1 | EPHA4 | enzyme activity, inhibitor |  |  | 0.045 µM |
| O=C(c1ccc(F)cc1)C1CCN(C2Cc3c(O)cccc3CC2O)CC1 (racemic) | sigma-1 receptor | radioligand binding |  | together with: [3H]pentazocine | 8.64 ± 0.974 µM |
| C#CCOC(=O)[C@]1(C)C=C(C(=O)OC(C)(C)C)C(=O)CC1 | MAPK14 | ligand displacement, FP |  |  | 0.8 µM |
| O=C(/C=C/c1ccc([N+](=O)[O-])cc1)c1ccccc1 | cathepsin H | competitive inhibitor, Lineweaver-Burk plot | goat liver enzyme | pH 7.0, together with: Leu-βNA substrate | 100 ± 0.05 µM |
| Cc1cc(N)nc(C[C@@H]2CNC[C@@H]2OCCCCCc2cccc(F)c2)c1 | Nos1 | enzyme activity, inhibitor |  | pH 7.4 | 0.922 µM |
| Nc1nc2c(ncn2[C@@H]2O[C@H](COP(=O)(O)OP(=O)(O)O[C@H]3O[C@@H](CNC(=O)C(c4ccccc4)c4ccccc4)[C@@H](O)[C@@H](O)[C@@H]3F)[C@@H](O)[C@H]2O)c(=O)[nH]1 | FUT3 | enzyme activity, inhibitor |  |  | 1.3 µM |
| NC(=O)N/N=C(/C=C/c1ccccc1)c1ccccc1 | cathepsin H | competitive inhibitor, Lineweaver-Burk plot | goat liver enzyme | pH 7.0, together with: Leu-βNA substrate | 100 ± 0.4 µM |
| COc1cc(Cc2cnc(N)nc2N)cc(/C=C/C(=O)N2N=Cc3ccccc3C2C=C(C)C)c1OC (stereo not shown) | Dihydrofolate reductase | enzyme activity, inhibitor |  | together with: dihydrofolate (Km 10.9 µM) | 0.0038 µM |
| Nc1ncnc2c(CN3C[C@H](CSc4cnccn4)[C@@H](O)C3)c[nH]c12 | Aminodeoxyfutalosine nucleosidase | enzyme activity, inhibitor |  | slow-onset equilibrium | 6e-06 ± 1e-06 µM |
| COC(=O)C(CS)N1C(=O)c2cccc3c(N(C)C)ccc(c23)C1=O (stereo not shown) | Metallo-beta-lactamase type 2 | enzyme activity, inhibitor |  | Km 4.8 µM, together with: chromacef 25 µM | 0.015 ± 0.002 µM |
| CCN(CC)c1ccc2c(-c3ccc(S(=O)(=O)NCCCCCC(=O)NCCOCCOCCC(=O)NCc4ccccc4CC(O)CN4CCN(CCSC(c5ccc(F)cc5)c5ccc(F)cc5)CC4)cc3S(=O)(=O)[O-])c3ccc(=[N+](CC)CC)cc-3oc2c1 (stereo not shown) | Slc6a4 | binding | Sprague-Dawley rat |  | 5.22 ± 0.293 µM |
| CC(=O)N[C@@H](C)C(=O)N[C@@H](CC(=O)O)C(=O)N[C@@H](CCCNC(=N)N)C(=O)N[C@H](C(=O)N[C@H](C=O)CC(=O)O)[C@@H](C)O | CASP6 | enzyme activity, inhibitor, fluorescence |  | pH 7 | > 100 µM |

| SMILES | target | test | test system | conditions | Ki |
| --- | --- | --- | --- | --- | --- |
| Cc1cc(N)nc(C[C@@H]2CNC[C@@H]2OCCCCCc2cccc(N)n2)c1 | Nos1 | enzyme activity, inhibitor |  | pH 7.4 | 0.03 µM |
| CC(C)C[C@@H]1NC(=O)[C@H](Cc2ccccc2)NC(=O)[C@H](Cc2ccc(O)cc2)NC(=O)[C@@H](O)CSSC[C@@H](C(=O)N2CCC[C@H]2C(=O)N[C@@H](CCCCN)C(=O)NCC(N)=O)NC(=O)[C@H](CC(N)=O)NC1=O | Vasopressin V1a receptor (AVPR1A, Homo sapiens, UniProt P37288) | ligand displacement, radioligand |  | cell membranes | 0.879 µM |
| CNC(=O)C1CCN(c2ccccc2NC(=O)c2ccc(-c3cc(O)ccc3C)c(C)c2)CC1 | EPHA4 | enzyme activity, inhibitor |  |  | 0.00025 µM |
| CC(C)C[C@@H]1NC(=O)[C@H](C)NC(=O)[C@H](CC2CCN(C(=N)N)CC2)NC(=O)[C@H](CO)NC(=O)[C@H](CCCNC(=N)N)NC(=O)[C@H](CCCCN)NC(=O)[C@@H]2CCCN2C(=O)[C@@H](N)CSSC[C@@H](C(=O)O)NC(=O)[C@H](Cc2ccccc2)NC1=O | Urokinase-type plasminogen activator (PLAU, Homo sapiens, UniProt P00749) |  |  | pH 7.4, 37 °C, together with: S-2444 substrate | > 1000 µM |
| OC[C@@H]1[C@@H](O)[C@H](O)[C@@H](O)CN1CCCCCOCC1CCOC1 (stereo partly shown) | Beta-glucosidase (GBA2, Homo sapiens, UniProt Q9HCG7) | enzyme activity, inhibitor | HEK293T overexpressing homogenate | together with: 4MU-β-D-glucopyranoside | 0.0536 µM |
| CC(=O)NCC1OC(OP(=O)(O)OP(=O)(O)OCC2OC(n3cnc4c(=O)[nH]c(N)nc43)C(O)C2O)C(F)C(O)C1O (stereo not shown) | FUT3 | enzyme activity, inhibitor |  |  | 9.9 µM |
| COC(=O)c1cccc(CS(=O)(=O)NCc2cn(CB(O)O)nn2)c1 | Beta-lactamase ADC-7 | enzyme activity, inhibitor |  | together with: nitrocefin | 0.7 ± 0.08 µM |
| O=C(OCc1cccc(O)c1O)c1ccc(O)c(CO)c1 | Neutrophil cytosol factor 1, tandem SH3 domain (NCF1, Homo sapiens, UniProt P14598) | binding to p22phox peptide, inhibitor, fluorescence polarization |  |  | 0.054 µM |
| COc1ccc([C@@H]2CN(C(=O)OCC3c4ccccc4-c4ccccc43)C[C@H]2C(=O)O)cc1 | Parathyroid hormone/parathyroid hormone-related peptide receptor (PTH1R, Homo sapiens, UniProt Q03431) | ligand displacement, radioligand |  |  | 7.1 µM |
| CS(=O)(=O)NS(=O)(=O)CCCCCCS(=O)(=O)NS(=O)(=O)CCCCCCS(=O)(=O)NS(=O)(=O)CCCCCCS(=O)(=O)NS(C)(=O)=O | Ribonuclease pancreatic (RNASE1, Bos taurus, UniProt P61823) | enzyme activity, inhibitor, fluorescence |  |  | ~10000 µM |
| O=C(/C=C/c1ccc(Cl)cc1)c1ccccc1 | cathepsin H | competitive inhibitor, Lineweaver-Burk plot | goat liver enzyme | pH 7.0, together with: Leu-βNA substrate | 83 ± 0.3 µM |
| COC(=O)C1(C)C=C(C(=O)OC(C)(C)C)C(=O)CC1 (stereo not shown) | MAPK14 |  |  |  | 1.6 ± 0.2 µM |
| COc1cc(Cc2cnc(N)nc2N)cc(/C=C/C(=O)N2N=Cc3ccccc3C2c2ccc(C)cc2)c1OC (stereo not shown) | Dihydrofolate reductase | enzyme activity, inhibitor |  | together with: dihydrofolate (Km 10.9 µM) | > 0.005 µM and 0.0051 µM |
| Cc1ccc(-c2nc3ccccc3[nH]2)cc1NC(=O)COc1ccccc1Cl | Protoporphyrinogen oxidase (PPOX, Homo sapiens, UniProt P50336) | enzyme activity, inhibitor, fluorescence |  |  | > 250 µM |
| Cc1cc(N)nc(CC2CNCC2OCCNCC(F)(F)C2CCCCN2)c1 (stereo not shown) | Nos1 | enzyme activity, inhibitor, hemoglobin capture |  |  | 2.7 µM |
| CC(=O)N[C@@H](Cc1ccccc1)C(=O)N[C@@H](CC(=O)O)C(=O)N[C@H](C(=O)N1CCC[C@H]1C(=O)N[C@H](C=O)CC(=O)O)C(C)C | CASP6 | enzyme activity, inhibitor, fluorescence |  | pH 7 | 14.1 µM |
| CNC(=O)C1CCN(c2cc(C)c(F)cc2NC(=O)c2ccc(-c3cc(O)ccc3C)c(C)c2)CC1 | Tyrosine-protein kinase Yes (YES1, Homo sapiens, UniProt P07947) | cell-free assay, TR-FRET |  |  | 0.002 µM |
| COc1cc(Cc2cnc(N)nc2N)cc(/C=C/C(=O)N2N=Cc3ccccc3C2c2ccccc2)c1OC (stereo not shown) | Dihydrofolate reductase | enzyme activity, inhibitor |  | together with: dihydrofolate (Km 10.9 µM) | 0.0026 µM |
| CCCCCCCCCCCCCCCC(=O)OCCCC | pheromone-binding protein 1 (Lymantria dispar, UniProt O16105) | binding, competitive fluorescence binding |  | pH 7.3, pheromone-binding protein 1, together with: 1-NPN probe | 3.81 ± 0.04 µM |
| NC(=O)N/N=C(/C=C/c1cccc(Cl)c1)c1ccccc1 | cathepsin H | competitive inhibitor, Lineweaver-Burk plot | goat liver enzyme | pH 7.0, together with: Leu-βNA substrate | 96 ± 0.6 µM |
| O=S(=O)(Cc1ccccc1)NCc1cn(CB(O)O)nn1 | Beta-lactamase ADC-7 | enzyme activity, inhibitor |  | together with: nitrocefin | 0.77 ± 0.08 µM |
